Measured values of several laboratories.
A part holds a random share of what one study measured.

Block 1
Target: RING finger protein unkempt homolog, zinc fingers 1-6, GST-SBP tag (UNK, Homo sapiens, UniProt Q9C0B0, residues 30-357)
UniProt Q9C0B0, sequence (30-357, looked up): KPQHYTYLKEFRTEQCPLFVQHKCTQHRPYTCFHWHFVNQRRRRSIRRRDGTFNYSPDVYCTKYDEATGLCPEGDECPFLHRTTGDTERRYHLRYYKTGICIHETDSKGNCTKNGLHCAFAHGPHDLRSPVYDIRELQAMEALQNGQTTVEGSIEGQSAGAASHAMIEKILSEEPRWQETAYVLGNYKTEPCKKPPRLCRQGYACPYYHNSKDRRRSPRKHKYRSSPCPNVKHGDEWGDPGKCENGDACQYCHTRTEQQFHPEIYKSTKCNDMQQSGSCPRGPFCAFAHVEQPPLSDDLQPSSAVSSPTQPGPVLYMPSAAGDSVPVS
Technique: RNA Bind-n-Seq
Form: RNA
Medium: in vitro
Tested at: not given
Notes: RNA with constant flanks, human and mouse sites, ends assumed
Relative to: input RNA pool
Reading: higher = stronger binding
Sequence	bound/input enrichment [ratio]
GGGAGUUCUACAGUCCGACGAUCGAAGCAGAAAGCGAGAGUUAAAGGAGGUGUUUGGUGAUGACUCUGAGAUCUCAAAGGAAUCAUCGGGGGUAAAGAAGCGGCGGAUACCCCGUUUUGAGGAGGUAGAAGAGGAGCCAGAGGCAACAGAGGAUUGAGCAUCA	0.468
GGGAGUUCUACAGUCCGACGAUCUUGGUCUUCAAGGACUUUUACCUCCUAAAAUAGAGACACAGGAUAUUCAAGCCUUACGAUUCCAUAGAAACUUGAAAAAAAUGACUAGCCCUUUGGAAAAAUACAUUUAUAUAAUGGGCACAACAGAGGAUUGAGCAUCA	7.82
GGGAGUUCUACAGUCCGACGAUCGGGAAACAGUUUGAUUCUCCCAUGCCAAGUCCCUUUCAAGGGGGAAGCUUCACUCUUCCUUUAGAUGUCAUGAAGAAUGAAAUAGUUACAGAAACAUCGCCCUUUGCCCCUGCCUUUUUACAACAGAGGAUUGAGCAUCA	0.429
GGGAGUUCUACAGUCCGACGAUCAUGAGAAACAGUAUCUUAGCCCAAGUUCUGGAUCAGUCGGCCCGGGCCAGGUUAAGUAACUUAGCACUUGUAAAGCCUGAAAAAACUAAAGCAGUAGAGAAUUACCUUAUACAGAUGGCACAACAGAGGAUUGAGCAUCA	1.19
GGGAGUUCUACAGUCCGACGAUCGGGGAGGUGUACGCUGAGUGUCUUAGUGACAGCAGCAUCUUUGUUCAGAGUAGGAACUGCAACUUUCACCAUGGCUUCCAUCCCACCACCGUCUGUAAGAUCCCCAGCAGCUGCAGCCUCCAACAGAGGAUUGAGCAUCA	0.205
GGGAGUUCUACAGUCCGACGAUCCUCACAGGUAGAAUGAACUGUGUACUGGCCACAUAUGGAAGCAUUGCAUUGAUUGUCUUAUAUUUCAAGUUAAGGUCCAAAAAAACUCCAGCUGUGAAAGCAACAUAAAUGGAUUUUAAACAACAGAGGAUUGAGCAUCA	0.151
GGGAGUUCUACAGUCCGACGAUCGAGCUGCAGGAACCAGACUGGGGGCGAGCUGAGCACCUGUAGUCAAUCACACGCAGCUUUUAGGUUUGUUUGAAUAAGAGAUCUGACCUGACCGGCCCAACUGUACAACUCUUCAAGGAACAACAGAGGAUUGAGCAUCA	0.637
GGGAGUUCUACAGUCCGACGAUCUUGUCUUGUUUUUUUUAGGUUUUGUUGUAAUUUAGAUCUAUUUCAUAUAUGGUUUGGAAACUUUCAGACUCAAUAGAACAAAAACUUUGGGUGGGAUGGGUGUCCCUGUCCCCAGCCCACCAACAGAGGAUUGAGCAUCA	16.3
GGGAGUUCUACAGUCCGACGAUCGGGAAAAGCCUGCAGGGGGAUCCUGCAGCUGCGCUGCUUGAGGUGUUGGAUCCUGAACAAAACCAUAACUUCACAGAUCACUAUCUAAAUGUGGCCUUUGACCUUUCCCAAGUUCUUUUCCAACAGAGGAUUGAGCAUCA	0.0678
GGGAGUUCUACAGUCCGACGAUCGUGGCAUCAACAUCAAUGAACAGAGAAUCGUCUAGGUCUCAUGCCGUCUUUACAAUUACAAUAGAGUCAAUGGAGAAAAGUAAUGAGAUUGUGAAUAUACGGACCUCCCUACUCAACCUGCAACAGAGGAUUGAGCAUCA	0.17
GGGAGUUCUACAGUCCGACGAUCCAGAAUACCCAGGGUCUCAUUUUUGUGGUAGAUAGCAAUGAUCGUGAAAGAAUCCAGGAAGGAGCAGCUGUGCUGCAGAAAAUGCUUCUGGAAGAUGAGCUGCAGGAUGCAGUGCUGCUCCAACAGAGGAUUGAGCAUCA	0.375

Block 2
Target: Sal-like protein 4, full length isoform A (SALL4, Homo sapiens, UniProt Q9UJQ4, residues 1-1053)
UniProt Q9UJQ4, sequence (whole entry, looked up): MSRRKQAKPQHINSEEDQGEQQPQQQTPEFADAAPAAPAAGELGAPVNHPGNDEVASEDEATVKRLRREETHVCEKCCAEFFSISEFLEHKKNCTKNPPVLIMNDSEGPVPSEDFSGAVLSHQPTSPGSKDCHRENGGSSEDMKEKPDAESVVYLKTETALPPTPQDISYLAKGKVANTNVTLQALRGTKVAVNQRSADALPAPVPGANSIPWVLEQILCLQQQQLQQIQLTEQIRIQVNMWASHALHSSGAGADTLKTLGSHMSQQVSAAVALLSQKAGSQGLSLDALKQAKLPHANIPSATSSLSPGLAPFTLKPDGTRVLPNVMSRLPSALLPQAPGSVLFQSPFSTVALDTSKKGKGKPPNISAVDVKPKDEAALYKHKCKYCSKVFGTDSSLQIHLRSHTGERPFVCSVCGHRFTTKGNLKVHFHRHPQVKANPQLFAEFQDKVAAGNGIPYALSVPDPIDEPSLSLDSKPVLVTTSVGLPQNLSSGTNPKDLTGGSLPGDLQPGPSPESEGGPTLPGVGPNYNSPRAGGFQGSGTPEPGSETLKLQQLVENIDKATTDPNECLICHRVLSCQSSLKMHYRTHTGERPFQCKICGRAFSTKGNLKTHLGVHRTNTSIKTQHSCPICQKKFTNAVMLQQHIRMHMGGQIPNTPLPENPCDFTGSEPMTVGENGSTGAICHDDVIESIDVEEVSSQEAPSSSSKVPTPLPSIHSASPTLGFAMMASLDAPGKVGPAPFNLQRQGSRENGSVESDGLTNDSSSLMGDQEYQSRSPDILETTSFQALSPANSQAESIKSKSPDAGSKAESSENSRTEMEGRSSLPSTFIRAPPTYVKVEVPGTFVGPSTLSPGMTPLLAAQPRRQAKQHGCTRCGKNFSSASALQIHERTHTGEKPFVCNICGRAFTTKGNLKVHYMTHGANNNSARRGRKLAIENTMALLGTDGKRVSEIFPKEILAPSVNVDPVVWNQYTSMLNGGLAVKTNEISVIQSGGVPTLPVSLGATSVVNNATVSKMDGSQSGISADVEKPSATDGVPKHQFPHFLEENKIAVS
Technique: universal PBM
Form: double-stranded DNA, one strand shown
Medium: in vitro
Tested at: 600 nM
Notes: 8-mer, flanks averaged, mean of replicates
Reading: higher = stronger binding
Sequence	E-score
AATTGGCT	0.17
ATTAAGGC	0.115
TCCTCCAA	-0.0216
CATGTGAC	0.139
CCTTAATA	0.256
AAAAGACT	0.114
GAGCCCTA	-0.104
GCTTGTAA	0.14
ACTCTTGC	-0.0184
TGCTACAA	0.175
CACGACCC	-0.214
AACATAAG	0.267
GGGTCAGA	-0.246
CAGTTGGA	-0.0839
ACCGGCAT	-0.105
TAGACGGA	0.0323
GCGGTAAA	-0.059

Block 3
Target: RNA binding protein fox-1 homolog 2, RRM domain, GST-SBP tag (RBFOX2, Homo sapiens, UniProt O43251-10, residues 100-194)
Technique: RNA Bind-n-Seq
Form: RNA
Medium: in vitro
Tested at: 365 nM
Notes: natural RNA segment, single round, ends assumed
Relative to: no-protein control
Reading: higher = stronger binding
Residues (chain): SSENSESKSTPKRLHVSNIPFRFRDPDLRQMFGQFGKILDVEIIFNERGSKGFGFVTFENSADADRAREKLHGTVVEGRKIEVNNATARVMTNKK
Sequence	RBNS enrichment (R)
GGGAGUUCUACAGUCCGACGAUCUCAUCACCCUCCUUGAGGUUACUGUGCAGUUUCAACCAGCAUUUUAUCCUAGUGAGGUCAUUAUCAGGAGUUGCCAUAUCAUCUCUCCAGUACCUAACAUUUCUCAUCCAUGGAAUUCUCGGGUGCCAA	0.379
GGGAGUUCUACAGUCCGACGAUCUAACAUUUAGAUAACAUAUGAAGUAUGGCCCCCUUGGAUCCUUGUUUUUAAGUUACUUUCGAUGUGUAUACGAACAAAGACCAGGGAGAAACAGAACUUUUAAAACUAUAUGGAAUUCUCGGGUGCCAA	0.399
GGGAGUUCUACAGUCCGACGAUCGAGAGAAGAGUUGUGUCCUUUACCAUAGCAACAGGAUUCAUUGGGGGAUCAAAAUCAUAAUUUUAAAUUAUGCAUUAUAUUUCUUUUCUCCACUCCUCACAUAUACAGAAUGGAAUUCUCGGGUGCCAA	0.403
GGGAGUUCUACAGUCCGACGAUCGGAUUUCUUUUGACAAUACUGUUGGUACCUAUUACUUGGGGGAGGACAUGUUGCAGAAGACCAGAUCAUUUUUAUACAGAAUGUGAAAUACUGAUACAGUUAUUCUUUUUUGGAAUUCUCGGGUGCCAA	0.572
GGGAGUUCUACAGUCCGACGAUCCAUGCACAUUGCUUUGGAGUCAGUAUUCAGCUGUAAGUGUAGUAUUGUUUUAUGGCUGAAAUAGAAAGCUAAUGAAGAGGCCUACCUGGAUCCAGAUUUUAUGUUAACAUUGGAAUUCUCGGGUGCCAA	1.8
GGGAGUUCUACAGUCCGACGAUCACGCUUCCAGCCCGGAGUGCUGGAGGCCCCCUAGCCCAGACAGACAUCUCUGCACCCUGGGGCCUGGACCUGCCUCCUGCCUGCCCCUCUCCCGCCAGACUGUUAGAAAAUGGAAUUCUCGGGUGCCAA	0.487
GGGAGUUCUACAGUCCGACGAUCUAGGGACUGCUGGGGAUCUUUUCUUUCUUUCCUUCAGUAUUUGGUACUUUACCAGAGAGGUGUACAUACUUCUUUUCAGUGUUGUGACCAAGUGCUGCGACUCAGCCAACUGGAAUUCUCGGGUGCCAA	0.306
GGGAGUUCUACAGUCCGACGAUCAUUCUUGUAGAAGGCAGUUUCCUCUACUUGCCCAAGAGCACUGAGUACUUCUCUACUAUCCUAUUAUUAGCUUCUAUCUCUUAGUGUAACUUCAAAACUUUUAAGAGCAGUGGAAUUCUCGGGUGCCAA	0.358
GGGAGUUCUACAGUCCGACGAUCCUUUGUUGCUUCCUUCCCUGGAGAGCAACACUACCUCCUGGGCUUUACCAAGCACCACCCUAACCUCUAAAAUCAGAGUUCAGCUGAGCUAUUAGUAGUGGGUGGUCACCUGGAAUUCUCGGGUGCCAA	0.225
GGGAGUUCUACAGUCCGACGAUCCAUUCCCACGGCAUCAUCUACCGGGACCUCAAGCCUGAGAACAUCAUGCUCAGCAGCCAGGGCCACAUCAAACUGACAGACUUUGGACUUUGCAAGGAGUCCAUUCAUGAUGGAAUUCUCGGGUGCCAA	0.248
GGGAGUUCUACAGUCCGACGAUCGGCCAGCAAUGUAUUCCGGGGAUGUAUUCUGGGGUCUGAGGGCCCUGGCCCAUUCUGAGAAAUGGAGCUGUAGCUAUGGCCUAGCCAGCACCCCCAGUGCUCGCUCAUGGUGGAAUUCUCGGGUGCCAA	0.242
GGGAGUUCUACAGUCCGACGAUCAAGCUGGGCUACUCCAUGACCAGGGGCAAGAUAGGCUUCUAGACAGCUGCGUCCCGGAAACCAAGGUGGUGGGGACUCCCUGUGCCACCUCAUGCCACCCACUGGCUGGAUGGAAUUCUCGGGUGCCAA	0.208

Block 4
Target: Ras GTPase-activating protein-binding protein 1, RRM domain (G3BP1, Homo sapiens, UniProt Q13283)
UniProt Q13283, sequence (whole entry, looked up): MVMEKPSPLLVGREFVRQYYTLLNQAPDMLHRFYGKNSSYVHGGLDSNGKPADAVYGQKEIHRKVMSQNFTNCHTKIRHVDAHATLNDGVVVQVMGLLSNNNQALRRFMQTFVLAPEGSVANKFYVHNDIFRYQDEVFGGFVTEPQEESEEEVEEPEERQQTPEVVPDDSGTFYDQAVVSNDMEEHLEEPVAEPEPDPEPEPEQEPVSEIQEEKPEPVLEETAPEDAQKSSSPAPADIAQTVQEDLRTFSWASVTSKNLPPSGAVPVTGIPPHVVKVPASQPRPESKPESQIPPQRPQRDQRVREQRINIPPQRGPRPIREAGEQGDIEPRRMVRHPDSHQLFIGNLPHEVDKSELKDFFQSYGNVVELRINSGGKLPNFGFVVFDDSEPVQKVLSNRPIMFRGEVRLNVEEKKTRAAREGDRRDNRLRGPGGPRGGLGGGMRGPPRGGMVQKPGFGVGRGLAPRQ
Technique: RNA Bind-n-Seq
Form: RNA
Medium: in vitro
Tested at: 1 µM
Notes: whole 134-nt RNA, ends assumed
Added: 150 mM KCl
Relative to: input library
Reading: higher = stronger binding
Sequence	log2 enrichment
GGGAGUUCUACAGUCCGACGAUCUCAAGUCCUGUGCUACACAUCGUAUGUACCGAAUCGGGAGGGAGGGAAAAAGGGAAAGUAUUAUGUUACGCCGUUCGGAUCUGCACUUCCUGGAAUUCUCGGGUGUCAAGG	0.676
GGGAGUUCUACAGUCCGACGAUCUAACUUUAGAGGAGGAUCUGAUGGAUAUGGCAGUGGACGUGGAUUUGGGGAUGGCUAUAAUGGGUAUGGAGGAGGACCUGGAGGUGGGAAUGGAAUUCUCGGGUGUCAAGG	-0.272
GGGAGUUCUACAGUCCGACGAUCAAGUCCUGUGCUACACAUCGUAUGUACCGAAUCGGGAAAAAAAGGGAAAGGGUGGGAAAGUAUUAUGUUACGCCGUUCGGAUCUGCACUUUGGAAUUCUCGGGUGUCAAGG	0.798
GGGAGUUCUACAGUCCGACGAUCCCUGUGCUACACAUCGUAUGUACCGAAUCGGUUUUUUUGGUUUUUUUGGGUUUUUUUGGGGAAAGUAUUAUGUUACGCCGUUCGGAUCUGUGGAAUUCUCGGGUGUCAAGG	-0.596
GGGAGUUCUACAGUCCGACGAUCCAAGUCCUGUGCUACACAUCGUAUGUACCGAAUCGGGAAAGGGAGGGUUUUUGGGAAAGUAUUAUGUUACGCCGUUCGGAUCUGCACUUCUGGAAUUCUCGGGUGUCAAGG	0.867
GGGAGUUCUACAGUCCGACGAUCCUCAAGUCCUGUGCUACACAUCGUAUGUACCGAAUCGGGUGGGAGGGAAAGGGAAAGUAUUAUGUUACGCCGUUCGGAUCUGCACUUCCAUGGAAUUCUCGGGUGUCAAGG	0.615
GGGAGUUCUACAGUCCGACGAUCACCAUGCAGGUGGGCAUCUUUGGGAAGUGGGGCAAGGGGGGGAUAGGGAGGGGGGUAGCACUUUGGGAACAGGUGGUCCCAGGUCGUUUCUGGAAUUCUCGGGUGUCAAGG	0.939
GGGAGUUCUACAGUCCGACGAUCUCCUGUGCUACACAUCGUAUGUACCGAAUCAAAUUUUUAAACCCCCCCAAAUUUUUAAAAAAGUAUUAUGUUACGCCGUUCGGAUCUGCAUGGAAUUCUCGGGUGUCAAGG	-0.214
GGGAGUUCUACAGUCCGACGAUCCAAGUCCUGUGCUACACAUCGUAUGUACCGAAUCGGGGUUGGGUUGGGGUUGGGGAAAGUAUUAUGUUACGCCGUUCGGAUCUGCACUUCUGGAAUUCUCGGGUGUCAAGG	1.07
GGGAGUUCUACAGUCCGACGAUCCUCAAGUCCUGUGCUACACAUCGUAUGUACCGAAUCGGGAGGGUUUGGGUGGGAAAGUAUUAUGUUACGCCGUUCGGAUCUGCACUUCCAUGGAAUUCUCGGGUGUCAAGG	0.468
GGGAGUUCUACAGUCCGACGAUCGUCCUGUGCUACACAUCGUAUGUACCGAAUCGGGUUUUUGGUUUUUGGGUUUUUGGGGAAAGUAUUAUGUUACGCCGUUCGGAUCUGCACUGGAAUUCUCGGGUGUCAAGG	-0.188
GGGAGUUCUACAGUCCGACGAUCGCAGGAAGUAAAAACAAAUGGAAAUGCUUCGUAUAGUGGCAGGGGUGGGGGUUGCUAAGGAAAGGGUGGGAUGGGAGUGGGUAAAGAGUUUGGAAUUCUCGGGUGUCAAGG	1.14
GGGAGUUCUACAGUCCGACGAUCCAAGUCCUGUGCUACACAUCGUAUGUACCGAAUCGGAAAAAGGAAAAAAAGGUGGAAAGUAUUAUGUUACGCCGUUCGGAUCUGCACUUCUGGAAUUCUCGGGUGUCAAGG	-0.133
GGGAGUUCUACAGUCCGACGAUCUGCGCCAACCUAGGCUUUCUUCUUCCUCUCCUCUUUAUAGGCGGAGUCGAUCUCCCAAAAGGAGAAGGUAGGCCUUCAGUCAUUUGUGAUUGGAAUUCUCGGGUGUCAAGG	-0.173

Some of these lines once more (block 2):
Sequence	E-score
CACGACCC	-0.214
AACATAAG	0.267
GGGTCAGA	-0.246
CAGTTGGA	-0.0839
